Assay results from different studies.
Parts stem from different laboratories: compare values within a part only. Values joined by “and” are separate records of one study, mostly repeats; a detail may differ.

Series 1 — cell line: A-375; tested at: 100 µM; time: 36 h; endpoint: viability
COc1cccc2c1C(=O)c1c(O)c3c(c(O)c1C2=O)C[C@@](O)(C(=O)CO)C[C@@H]3O[C@H]1C[C@H](N)[C@@H](O)[C@H](C)O1: 23.3%
NNC(=O)c1ccncc1: 83.9%
C[C@@H]1O[C@@H](O[C@H]2[C@H](Oc3cc(O)c4c(c3)O[C@H](c3ccc(O)cc3)CC4=O)O[C@H](CO)[C@@H](O)[C@@H]2O)[C@H](O)[C@H](O)[C@H]1O: 90.1%
N[C@H](C(=O)O)[C@H](O)c1ccc(O)c(O)c1: 57%

Series 2 — cell line: mouse MPNST tumor cells; technique: high-content nuclear imaging; item: cell number; tested at: 10 µM; time: 12 h; notes: mean of 2 replicates; relative to: plate mean; reading: higher = more cells; endpoint: nuclei count
O=C(N1CCC(C(c2ccc3c(c2)OCO3)c2ccc3c(c2)OCO3)CC1)n1cncn1: 2.41 z-score
O=C1CN2Cc3c(ccc(Cl)c3Cl)N=C2N1: -0.369 z-score
CC(C)Cn1cnc2c(N)nc3ccccc3c21: -0.505 z-score
CCN1CCN(c2cc3c(cc2F)c(=O)c(C(=O)O)cn3C2CC2)CC1: -0.532 z-score and 0.265 z-score
CN(C)C(=N)NC(=N)N: 1.84 z-score and 2.78 z-score and 0.728 z-score
CCOC(=O)[C@H](C)C[C@@H](Cc1ccc(-c2ccccc2)cc1)NC(=O)CCC(=O)O: 1.8 z-score

Series 3 — host: human; matrix: microsomes or S9; tested at: 2 µM; time: 0.5 h; endpoint: remaining compound
CCCc1cc(N2CCC3(CCC(=O)N(CCc4c[nH]cn4)C3)CC2)nc(C)n1: 90.4%
COc1cc(=O)n(C)cc1C(=O)Nc1cc(C)nc2ccccc12: > 99%
O=C(C1CCN(C2=NS(=O)(=O)c3ccccc32)CC1)N1CCCc2ccccc21: 9.1%
CC(=O)/N=C1\N(c2ccc(Cl)cc2Cl)C(=O)N(S(=O)(=O)c2ccc(Cl)cc2)C1(C)C(C)C (centres unmarked): 8.74%

Single results of other studies
DRD1: D(1A) dopamine receptor (DRD1, Homo sapiens, UniProt P21728)
UniProt P21728, sequence (whole entry, looked up): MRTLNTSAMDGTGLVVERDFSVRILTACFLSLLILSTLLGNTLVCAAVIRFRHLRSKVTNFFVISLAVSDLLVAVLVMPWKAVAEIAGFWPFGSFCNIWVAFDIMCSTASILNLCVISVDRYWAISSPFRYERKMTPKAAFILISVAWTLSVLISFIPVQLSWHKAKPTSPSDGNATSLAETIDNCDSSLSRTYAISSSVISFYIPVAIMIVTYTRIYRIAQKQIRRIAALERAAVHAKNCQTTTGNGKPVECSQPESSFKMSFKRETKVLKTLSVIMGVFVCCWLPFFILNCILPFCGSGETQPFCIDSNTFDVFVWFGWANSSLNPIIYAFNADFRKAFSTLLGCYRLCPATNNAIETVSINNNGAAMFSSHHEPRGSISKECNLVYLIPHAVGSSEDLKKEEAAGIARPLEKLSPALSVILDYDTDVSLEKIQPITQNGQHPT
O=C(NCc1ncc(C(F)(F)F)cc1Cl)c1ccc2c(c1)C1(CCS(=O)(=O)CC1)[C@@H](C1CC1)N2S(=O)(=O)c1ccc(F)cc1  Ki (DRD1; binding, radioligand binding): > 10 µM
O=C(c1ccc(F)cc1)N1CC(COc2ccc(Br)cc2)(C(=O)O)C1  Ki (DRD1; binding, radioligand binding): > 10 µM
CN(C)CC#Cc1ccc(OCCCc2sc(N3CCc4cccc(C(=O)Nc5nc6ccccc6s5)c4C3)nc2C(=O)O)c(F)c1  toxicity (normal human organoids; 0.01 to 10 µM, 4 days): not toxic
